Results collected from several papers.
Each numbered part is a random draw from the data of one study; scales do not carry over between parts. Positions count from the first letter of the parent shown.

Study 1
Target: ABI1, truncated, D143A, DHFR fusion (Arabidopsis thaliana)
Method: DHFR PCA, deep sequencing
Matrix: yeast
Notes: methotrexate growth selection, single substitutions
Together with: (+)-ABA 1.4 µM
Relative to: wild-type fitted maximum
Direction: higher = stronger binding
Quantity: relative binding score
Parent: PYL1, truncated, DHFR fusion (Arabidopsis thaliana); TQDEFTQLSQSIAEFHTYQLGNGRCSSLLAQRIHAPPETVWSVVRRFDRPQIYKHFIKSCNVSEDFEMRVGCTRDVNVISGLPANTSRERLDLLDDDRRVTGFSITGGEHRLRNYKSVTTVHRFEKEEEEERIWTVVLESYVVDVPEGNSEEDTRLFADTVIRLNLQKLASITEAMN
D3P: 47.7%
A158T: 63.7%
S11R: 30%
A30S: 66.5%
H55N: 57.2%
S140E: 7.81%
L94S: 4.27%
D48K: -8.53%
N177H: 74.4%
C25M: 7.31%
V142S: 41%
T119K: -2.27%
F157R: 15.6%
F103L: 4.43%
F124K: 2.76%
E109H: 16.6%
L91E: -15.8%

Study 2
Substance: PhoQ, residues 284 288 289 292 302 303 SLKLQV
Method: Sort-seq
Measured: YFP reporter
Matrix: E. coli
Notes: PhoQ-PhoP variant library
Together with: 10 µM Mg2+
Relative to: high Mg2+ state
Direction: higher = stronger signaling
Quantity: fold induction
PhoP, residues 12 14 15 18 19 SHWTV (Escherichia coli, UniProt P23836): 4.67
PhoP, residues 12 14 15 18 19 QYCSL (Escherichia coli, UniProt P23836): 6.97
PhoP, residues 12 14 15 18 19 STHWV (Escherichia coli, UniProt P23836): 17.8

Study 3
Target: RNA binding protein fox-1 homolog 2, RRM domain, GST-SBP tag (RBFOX2, Homo sapiens, UniProt O43251-10, residues 100-194)
Method: RNA Bind-n-Seq
Molecule type: RNA
Matrix: in vitro
Tested at: 365 nM
Notes: natural RNA segment, single round, ends assumed
Relative to: no-protein control
Direction: higher = stronger binding
Quantity: RBNS enrichment (R)
Constant ends, left off below: GGGAGUUCUACAGUCCGACGAUC … UGGAAUUCUCGGGUGCCAA
Construct (chain): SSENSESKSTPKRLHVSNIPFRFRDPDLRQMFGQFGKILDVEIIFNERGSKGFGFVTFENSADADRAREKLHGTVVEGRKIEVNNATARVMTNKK
ACUCUAUACCAAGGAUAUUAUUAAAACUAGAAAUGACUGCAUUGAGAGGGAGUUGUGGGAAAUAAGAAGAAUGAAAGCCUCUCUUUCUGUCCGCAGAUCCUGACUUUUCC: 0.874
UAGAGAGAAAAGAGAGUGCGCUUUGGAAAUUUAUUCCAGUUUUCAGCCUACAGCAGAUUAUCAGCUCGGUGACUUUUCUUUCUGCCACCAUUUAGGUGAUGGUGUUUGAU: 0.307
UACUAUACUCUUGUUUGUAAGAAUAUAUUUUCCUUAUUGUUGGAGUCUCCAGAGGUUAUUGGAAGGAAUAAAAAAGGACAUGUUUUCUAACGAAACUCUCAAAUUCAUUA: 0.446
UUAAAUAGAAUACGGUUUUAAUUUUUGAUAAGCUGCUGAAUUUUAAAGAGAGUUUUUUGGGGCCACCAAAUAUUUUGGAUCAUGCAGAGAAUAUAUAUUGUACUGUAGUA: 0.486
UAAACUGAUUUUCAGAAUUCACUGAACUACUAAAUGUGGGAUUGGAUAAUAGACUUGGAGUGCCGCUGAGGCUGAGAUCUGUGGCCAUUUACAUAGCACAUCAUUCCUCC: 0.349
AGCUGGAUUAUAUAUUUCCCAGACUUCAAACCCUAGCAGAAGCUAAGGCUUGUGAUUUGACCUGAGACAUUUGUUUCAGGUAAUCGUGUAGAAUGAAGUAUCUUAGUUUA: 0.277
AGUGGGGAGGGACAAGAGAUUCUGGAAAGUGAGCCUCCCCAUACCCUCUUUUGUUCUCCCCACCCUGAUACUUGUUAUUAAGAAAUGAAUAAAAUAAACUCACUUUUUUC: 0.553
CUUUGAACAGCUGUAUAUUAGUCCAUAACAUAACUACAAGAUUAGAUAGAGGCAACAUACUGUUAAGUCAUAUUUAAGUAAUUAGUUUUCUCUUAAUGUUGCCAAUAGAA: 0.374

Study 4
Target: CCNF, cyclin fold, Cln2 fusion (human)
Method: yeast growth competition, sequencing
Matrix: yeast
Notes: weak parent motif
Relative to: not given
Direction: higher = stronger binding
Quantity: normalised enrichment score
Parent: E2F8 docking peptide (human); FVPQRKLEVSTED
AVPQRKLEVSTED [F1A]: 0.337
FVPQKKLELSTED [R5K V9L]: 0.481
FVPQRKLEVSAED [T11A]: 0.101
FVPQRKLEVSTAD [E12A]: 0.271
FVPQRKLEVSTEA [D13A]: 0.275
FVPQRKLEASTED [V9A]: -0.445
FVPQRKAEVSTED [L7A]: 0.384
FAPQRKLEVSTED [V2A]: 0.14
FVPQAKAEVSTED [R5A L7A]: -0.579
FVPQKKLEVSTED [R5K]: -0.125
FVPQRKLELSTED [V9L]: 3.41

A few entries again (study 1):
D48K: -8.53%
N177H: 74.4%
C25M: 7.31%
V142S: 41%
T119K: -2.27%
F157R: 15.6%
F103L: 4.43%
